# Measured values of several laboratories.
# Every numbered part comes from another study and shows a few of its results, in no order. Substitutions count along the parent as printed.

# Series 1
# Target: CCNA1, cyclin fold, Cln2 fusion (human)
# Method: yeast growth competition, sequencing
# Matrix: yeast
# Setting: weak parent motif
# Reference: not given
# Reading: higher = stronger binding
# Starting sequence: DOT1L docking peptide (human); SEAKRRIVFTITT; partner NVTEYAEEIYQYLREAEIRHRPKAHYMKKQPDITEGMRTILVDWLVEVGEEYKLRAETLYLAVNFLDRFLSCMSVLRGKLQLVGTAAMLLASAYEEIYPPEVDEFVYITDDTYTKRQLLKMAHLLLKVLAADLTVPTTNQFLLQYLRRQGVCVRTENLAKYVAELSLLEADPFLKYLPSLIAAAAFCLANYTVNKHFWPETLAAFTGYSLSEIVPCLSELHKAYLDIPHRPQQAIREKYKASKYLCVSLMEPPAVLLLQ
Variant,normalised enrichment score
I7A,-0.00297
S1A,0.455
R5A,-0.0699
T10A,-0.0704
K4A,-0.0913
V8A,0.21

# Series 2
# Target: RNA binding protein fox-1 homolog 2, RRM domain, GST-SBP tag (RBFOX2, Homo sapiens, UniProt O43251-10, residues 100-194)
# Method: RNA Bind-n-Seq
# Molecule type: RNA
# Matrix: in vitro
# Concentration: 365 nM
# Setting: natural RNA segment, single round, ends assumed
# Reference: no-protein control
# Reading: higher = stronger binding
# Residues (chain): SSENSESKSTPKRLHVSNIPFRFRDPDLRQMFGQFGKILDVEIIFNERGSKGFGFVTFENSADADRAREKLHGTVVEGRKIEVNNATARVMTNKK
Oligonucleotide,RBNS enrichment (R)
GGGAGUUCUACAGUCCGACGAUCCAGUAUAUGUUCCAGCUGCAGAGAGCAGACUGCUCUCAGCUUGCCUAGCACCUUAGGGGAGGGAAGAUAAAUGGAUAGGUAAUGGGGUGGAGGAAGGAUGGGGAUUUUGUUGGAAUUCUCGGGUGCCAA,0.787
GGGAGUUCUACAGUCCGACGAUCUCCAGUGGCUUCUCCUUUCUGUCAAGACUUAGCCCCGCUGAGAUGCCCUUCUGCUCCAGCUUGCUGGAUGUUACCUGUCCUCUUCCCUCCACAAGUCUUGGCCCUUAACCUGGAAUUCUCGGGUGCCAA,0.395
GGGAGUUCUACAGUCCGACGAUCGCCUUCCUUCCCCCAGGGCCUAUUUCUUGUGUGGAUCACGUGGCAGUAGCAUGUUGCAGUCAGACGUCUCCACUACCCUGUUGAGAACAGCCUGGGAAUGUACAGGUCAUUGGAAUUCUCGGGUGCCAA,36
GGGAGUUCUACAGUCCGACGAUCGGAUAAAGGGCAGAUGUCAGCAAUACUAAGGGCUUCCUCAUGGGAGGGCAUGAGGCUCCACUCAUUGUCUUGUGACUUCCAUCCCUGCUGAAUGGGGCUGCAAGGCCAAGUGGAAUUCUCGGGUGCCAA,0.531
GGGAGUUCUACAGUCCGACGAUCAUAGUAAUACACAUCUGCCUUUGUCUCUUCACUCAGAGUCAACUGAAAAAUUGCAGGCCAAAACCUUGGAGAACUUUCCAAGUCUGUGACUCCCAGAUUACCCGUGGGCGUGGAAUUCUCGGGUGCCAA,0.383
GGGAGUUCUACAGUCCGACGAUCUGUGUUAGAUGGUGACCGAAGUGUUCUCCACUACACCUGUCUGAAGAGAUCUAAGUCUGAUAUUUAAGGAGUGAUAGCAUCUUGCAUACUUAAGAAGGCUUAAAAGACUGUGGAAUUCUCGGGUGCCAA,2.13
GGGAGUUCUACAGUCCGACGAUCUAAACCCAGCCCCCAAGCUGAGACCAGUCUCCCUGUGGCGGAGCCAGCCAAGAUGGGGCCAUUCUCUCUGUGGAGGAGCCCCUUCCAGCCUUUGUCAGGAAGUGUCUUUGUGGAAUUCUCGGGUGCCAA,0.241
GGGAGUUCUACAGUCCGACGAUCGAAAGCUAGUUUUGAGAAAUUAUUCAGAAGCCUUGUUAUUUUAAAAAUGAAAUAUUUCAAAGACUGAAUAUUUUCAAAGAAAAUGAAUAAUUCAUUGCCCUUGUGAUUUAUGGAAUUCUCGGGUGCCAA,0.619
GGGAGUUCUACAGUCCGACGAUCUACCUUACCAUUGUUAGGACAGCGUGAGUAGACCUGCUUGCUCUUCUCACUUUCCUCAUUGGCUUAUUAAUUAGCUCCUUACUUUGUUGCCUUUGCUUCAAAUGGUUUGAUGGAAUUCUCGGGUGCCAA,5.74

# Series 3
# Target: RING finger protein unkempt homolog, zinc fingers 1-6, GST-SBP tag (UNK, Homo sapiens, UniProt Q9C0B0, residues 30-357)
# Method: RNA Bind-n-Seq
# Molecule type: RNA
# Matrix: in vitro
# Concentration: not given
# Setting: RNA with constant flanks, human and mouse sites, ends assumed
# Reference: input RNA pool
# Reading: higher = stronger binding
# Residues (chain): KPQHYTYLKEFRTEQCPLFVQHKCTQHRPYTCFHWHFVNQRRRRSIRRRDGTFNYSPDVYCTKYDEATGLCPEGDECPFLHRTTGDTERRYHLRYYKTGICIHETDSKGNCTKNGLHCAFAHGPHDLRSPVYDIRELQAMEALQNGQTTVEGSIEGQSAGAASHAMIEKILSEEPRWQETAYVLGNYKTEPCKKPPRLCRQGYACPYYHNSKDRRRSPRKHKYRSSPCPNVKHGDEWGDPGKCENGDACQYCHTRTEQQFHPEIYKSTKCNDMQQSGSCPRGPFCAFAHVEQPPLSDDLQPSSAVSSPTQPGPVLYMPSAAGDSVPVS
Oligonucleotide,bound/input enrichment [ratio]
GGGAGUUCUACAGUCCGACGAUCAAAUCAGAACGUCCAUGUGAUGAAGACAAGACUGAUUCAGAGACAGGAAAGUUGAUCAUGUUAGUCAAUGAGUUUUAUUAUGGAAGGCAUGAAGGAGUCACUGAGAAAGAGCCAAAGACUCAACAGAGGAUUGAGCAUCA,0.308
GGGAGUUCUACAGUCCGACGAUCCUGAUGUUCAUUCAGAGGAUAAAAGUCAUGCUCCUUUUAGCCCAGAUAAUGUAAAUCAAAAAGUUGUCCAUGACUAUCCGGAGGUUUGUUCACCUGUCAUUAGUACAUCGCAUGCAUCAUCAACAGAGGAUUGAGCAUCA,1.12
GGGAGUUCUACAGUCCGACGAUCCCAGAAUAUGUUUUGGCUUAUAUUGACUAUCUCUCUCACCUCAAUGAGGACAAUAAUACUCGAGUUUUGUUUGAAAGAGUUCUAACGUCUGGAAGCCUUCCUCCUGAGAAGUCUGGAGAACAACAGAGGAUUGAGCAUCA,0.185
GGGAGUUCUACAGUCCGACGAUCGCUUCCAAGAAGGUUUUGGAUACUAGAAGUAUUAAUCUAUGGCUUUUCUCCCAGUAAAACCAUAGGCCUGAAGUUCACAUUGGGUCUUUAAAUCUUUUAGAUAUAUACUGGUCAUUUCAGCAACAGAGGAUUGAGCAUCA,1.23
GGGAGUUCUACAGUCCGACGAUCAAUUCAGGUAACUUCAAAAGUUCAUCAGAUAGAAACCCUCCACUCAGCCCUCAGUCCUCUAUAGAUAGUGAGUUAAGUGCUUCAGAAUUAGAUGAAGAUUCAAUUGGAUCCAACUAUAAGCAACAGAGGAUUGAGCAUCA,1.6
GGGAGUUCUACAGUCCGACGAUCGACAGAGAGGCACCUGGGUCAGUAUUAGUCUAUUUAUCAGAGGUGUAAAUAAUCUAUGUAUAGUUUUUCUCCUUUUAGAUUAUUUUGUAUUUGUUUAAAAGAAGUUUUGUCAAAAUACAACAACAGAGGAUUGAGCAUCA,7.25
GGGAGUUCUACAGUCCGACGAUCGCUGGUCAUCCUCUGGCACAGAACGAACGUUGUCUUCACAUGUUUUUACAAGAUGAAAUAAUAGAUAAAAGCUAUACUCCAUCUAAAAUAAGACAUGCCUGAAAUUUGGCAAGAAGGGGCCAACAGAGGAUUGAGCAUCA,0.172
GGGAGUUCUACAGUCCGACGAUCAACAAAGAUUAUCACCAGGAUGUGCGUAAUAACUUUUUGCCACCAAUUAUUGCACGUUUUAUUAGAGUGAAUCCUACCCAAUGGCAGCAGAAAAUUGCCAUGAAAAUGGAGCUGCUCGGACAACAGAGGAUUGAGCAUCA,0.285
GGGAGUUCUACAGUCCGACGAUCCAGUUAAGGAAAGGAGUAAGUGAAAUUGGAGAAGAUGUGGACUAUGAUGAGGAACUCUAUGUUGCUGGAAAUAUGGUGAUAUGGAGCAAAGGAAGUAAAAGCCAGGCAUUGGCAGUUUAUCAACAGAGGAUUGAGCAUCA,0.302
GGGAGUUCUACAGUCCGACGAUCGGAGCAACAAAGCCACUGCGGCCUCCAUUUGGGCCAAGCUCUGACUGCAAUGAUGCCUCUGCCCCGACCCGGGCCUCGCUGUGACUGACAAUGCCGCUGCAUCUUUUCAGCAGUCAUUGACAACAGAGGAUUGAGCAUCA,0.0498
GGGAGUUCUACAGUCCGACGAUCCAAACCAGAAAUACCUCAGAAUUUUCUACUUGUGUAUGUUUUAUUAAUUAUAUAUUUUGUUAGUUGUGUUGUCUUGUAGGAAGUAUAUUUUAAUGUAAGUUGACUUUUAUGACGAGGAAGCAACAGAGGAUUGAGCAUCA,10.9

# Series 4
# Target: Ras GTPase-activating protein-binding protein 1, full length (G3BP1, Homo sapiens, UniProt Q13283)
# UniProt Q13283, sequence (whole entry, looked up): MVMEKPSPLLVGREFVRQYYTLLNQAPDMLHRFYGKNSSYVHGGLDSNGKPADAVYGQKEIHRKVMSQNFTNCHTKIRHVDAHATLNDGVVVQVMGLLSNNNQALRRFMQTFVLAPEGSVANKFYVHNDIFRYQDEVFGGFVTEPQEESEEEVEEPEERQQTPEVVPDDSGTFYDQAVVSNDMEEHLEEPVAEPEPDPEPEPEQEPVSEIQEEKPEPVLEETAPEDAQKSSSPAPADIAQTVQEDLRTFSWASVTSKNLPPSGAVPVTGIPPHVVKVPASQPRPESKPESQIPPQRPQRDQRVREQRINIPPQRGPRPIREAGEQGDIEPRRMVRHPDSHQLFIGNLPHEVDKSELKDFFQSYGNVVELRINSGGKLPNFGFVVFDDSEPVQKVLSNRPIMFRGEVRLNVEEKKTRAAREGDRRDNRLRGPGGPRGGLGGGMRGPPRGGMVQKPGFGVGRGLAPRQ
# Method: RNA Bind-n-Seq
# Molecule type: RNA
# Matrix: in vitro
# Concentration: 200 nM
# Setting: whole 134-nt RNA, ends assumed
# Added: 150 mM LiCl
# Reference: input library
# Reading: higher = stronger binding
# All molecules: 7-deaza-guanosine replaces G
Oligonucleotide,log2 enrichment
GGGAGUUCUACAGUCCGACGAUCUAACUUUAGAGGAGGAUCUGAUGGAUAUGGCAGUGGAAGUGGAUUUGGGGAUGGCUAUAAUGGGUAUGGAGGAGGACCUGGAGGUGGCAAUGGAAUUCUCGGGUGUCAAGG,-0.036
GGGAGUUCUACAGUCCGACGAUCGCAGGAAGUAAAAACAAAUGAAAAUGCUUCGGAUAGUGGCAGGGGUGGGGGUUGCUAAGGAAAGGGUGGGAUGGGAGUGGGUAAAGAGUUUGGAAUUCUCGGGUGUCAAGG,0.153
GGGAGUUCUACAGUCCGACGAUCUCCUGUGCUACACAUCGUAUGUACCGAAUCGGCCCCCCGGGGCCCCCCGGGCCCCCCGGGAAAGUAUUAUGUUACGCCGUUCGGAUCUGCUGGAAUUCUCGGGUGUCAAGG,-2.53
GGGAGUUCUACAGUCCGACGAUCUCCUGUGCUACACAUCGUAUGUACCGAAUCAAACCCAAACCCCCCCAAAUUUUUUUAAAAAAGUAUUAUGUUACGCCGUUCGGAUCUGCAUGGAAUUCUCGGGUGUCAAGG,1.04
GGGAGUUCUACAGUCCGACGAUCAAGUCCUGUGCUACACAUCGUAUGUACCGAAUCGGCCCCGGGCCCCGGGGCCCCGGAAAGUAUUAUGUUACGCCGUUCGGAUCUGCACUUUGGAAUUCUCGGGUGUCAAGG,-1.06
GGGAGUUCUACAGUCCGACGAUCUCCUGUGCUACACAUCGUAUGUACCGAAUCGGGGUUUUUGGGGAGGGGAAAAAAAGGGGAAAGUAUUAUGUUACGCCGUUCGGAUCUGCAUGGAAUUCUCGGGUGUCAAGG,-0.0801
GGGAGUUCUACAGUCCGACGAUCCUGUGCUACACAUCGUAUGUACCGAAUCGGGAAAAAAAGGGUUUUUUUGGGUUUUUUUGGGAAAGUAUUAUGUUACGCCGUUCGGAUCUGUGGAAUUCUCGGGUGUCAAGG,-2.28
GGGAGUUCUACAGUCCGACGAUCUCCUAGUAUUCUGGCCGUUCAGAGAUCUGCAAUCCUCAAGAAGCAGCAACAGCAGCAGCAGCAACAACAACAUCAAGCCUCAUCUAAUAGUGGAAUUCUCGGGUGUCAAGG,1.24

# Excerpt of the above (series 2):
Oligonucleotide,RBNS enrichment (R)
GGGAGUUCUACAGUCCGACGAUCUCCAGUGGCUUCUCCUUUCUGUCAAGACUUAGCCCCGCUGAGAUGCCCUUCUGCUCCAGCUUGCUGGAUGUUACCUGUCCUCUUCCCUCCACAAGUCUUGGCCCUUAACCUGGAAUUCUCGGGUGCCAA,0.395
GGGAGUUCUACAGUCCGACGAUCGCCUUCCUUCCCCCAGGGCCUAUUUCUUGUGUGGAUCACGUGGCAGUAGCAUGUUGCAGUCAGACGUCUCCACUACCCUGUUGAGAACAGCCUGGGAAUGUACAGGUCAUUGGAAUUCUCGGGUGCCAA,36
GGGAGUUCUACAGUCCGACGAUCGGAUAAAGGGCAGAUGUCAGCAAUACUAAGGGCUUCCUCAUGGGAGGGCAUGAGGCUCCACUCAUUGUCUUGUGACUUCCAUCCCUGCUGAAUGGGGCUGCAAGGCCAAGUGGAAUUCUCGGGUGCCAA,0.531
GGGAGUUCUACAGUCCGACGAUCAUAGUAAUACACAUCUGCCUUUGUCUCUUCACUCAGAGUCAACUGAAAAAUUGCAGGCCAAAACCUUGGAGAACUUUCCAAGUCUGUGACUCCCAGAUUACCCGUGGGCGUGGAAUUCUCGGGUGCCAA,0.383
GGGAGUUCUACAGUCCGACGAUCUGUGUUAGAUGGUGACCGAAGUGUUCUCCACUACACCUGUCUGAAGAGAUCUAAGUCUGAUAUUUAAGGAGUGAUAGCAUCUUGCAUACUUAAGAAGGCUUAAAAGACUGUGGAAUUCUCGGGUGCCAA,2.13
